Results collected from several papers.
Parts stem from different laboratories: compare values within a part only. Values joined by “and” are separate records of one study, mostly repeats; a detail may differ.

Study 1
Compound: CCN1/C(=C/C=C2\CCCC(/C=C/C3=[N+](CC)c4ccccc4C3(C)C)=C2NCCCCCCCCN2CCC(Nc3nc4ccccc4n3Cc3ccc(F)cc3)CC2)C(C)(C)c2ccccc21
Cell line: U-87 MG
Concentration: concentration not given
Relative to: DMSO
refers to	log2 fold change
PODNL1 mRNA	-1.65
CENPB mRNA	-0.871
NIPAL4 mRNA	1.56
FEN1 mRNA	-1.68
RND3 mRNA	1.93
WNT10B mRNA	-2.31
CCR7 mRNA	-4.82
OXTR mRNA	-2.56
B3GALT4 mRNA	-2.11
EHMT2 mRNA	-0.916
HDGF mRNA	-1.01

Study 2
Cell line: HCC1569
Method: in-cell western
Refers to: CDK1 phospho-Thr14
Concentration: 4.12 nM
Structure (SMILES)	pCDK1 (Thr14) level
Cc1ccc(O)c(C)c1-c1cnc2[nH]c(-c3cnc(N4CCC(CCN5CCN(c6cc7c(cc6F)c(N6CCC(=O)NC6=O)nn7C)CC5)CC4)nc3)cc2c1C#N	22.5 RLU and 25.8 RLU
Cc1ccc(O)c(C)c1-c1cnc2[nH]c(-c3cnc(N4CCC(CN5CCN(c6ccc(NC7CCC(=O)NC7=O)c(F)c6)CC5)CC4)nc3)cc2c1C#N (racemic)	19.1% and 20.5%
Cc1ccc(O)c(C)c1-c1cnc2[nH]c(-c3cnc(N4CCC(CN5CCN(c6c(F)cc(NC7CCC(=O)NC7=O)cc6F)CC5)CC4)nc3)cc2c1C#N (racemic)	22.3% and 12.3%
Cc1ccc(O)c(C)c1-c1cnc2[nH]c(-c3cnc(N4CCC(CCN5CCN(c6ccc7c(c6)C(=O)N(C6CCC(=O)NC6=O)C7=O)CC5)CC4)nc3)cc2c1C#N (racemic)	11.3 RLU and 19.9 RLU
Cc1ccc(O)c(C)c1-c1cnc2[nH]c(-c3cnc(N4CCC5(CC4)CC(N4CCN(c6ccc7c(c6F)CN(C6CCC(=O)NC6=O)C7=O)CC4)CO5)nc3)cc2c1C#N (mixture of isomers)	25.1 RLU and 18.2 RLU

Study 3
Compound: Cc1ncsc1-c1ccc(C(CO)NC(=O)C2CC(O)CN2C(=O)C(C(C)C)n2cc(-c3ccc(COc4c(-c5c(C)c(F)cc6[nH]ncc56)c(C5CC5)cc5c(N6CC7CC6CN7)nc(OC6CCOCC6)nc45)cc3)nn2)cc1 (stereo not drawn)
Method: qRT-PCR
Species: mouse, PK-59 xenograft
Medium: tumour
Setting: unit not given
refers to	route	dose	time	relative to	mRNA level
DUSP4	–	10 mg/kg	72 h	vehicle	0.249 and 0.317 and 0.267
MYC	–	10 mg/kg	144 h	vehicle	0.593 and 0.62 and 0.85
DUSP4	intravenous	30 mg/kg	144 h	vehicle, same time point	0.269 and 0.235
DUSP6	intravenous	30 mg/kg	144 h	vehicle, same time point	0.0927 and 0.092
DUSP4	–	10 mg/kg	2 h	vehicle	1.18 and 1.28 and 0.953
DUSP6	intravenous	10 mg/kg	2 h	vehicle, same time point	0.178 and 0.158 and 0.129
ETV4	intravenous	10 mg/kg	144 h	vehicle, same time point	0.0108 and 0.0112 and 0.00853
MYC	–	30 mg/kg	144 h	vehicle	0.415 and 0.539

Study 4
Cell line: MDA-MB-468
Read-out: cell viability
Method: CellCounting-Lite
Concentration: 2000 nM
Temperature: 37 °C
Direction: higher = more viable cells
SMILES	luminescence signal
CC(=O)N1CCN(c2nc(NCc3nc4cc(Cl)c(Cl)cc4[nH]3)c3ncn(-c4cnn(C)c4)c3n2)CC1	38300 a.u. and 34100 a.u. and 34500 a.u.
CCn1cnc2c(NCc3nc4ccc(F)c(F)c4[nH]3)nc(N3CCn4ncnc4C3)nc21	42400 a.u. and 35800 a.u. and 38500 a.u.
Cn1cc(-n2cnc3c(NCc4nc5cc(Cl)c(Cl)cc5[nH]4)nc(N4CCNCC4)nc32)cn1	54700 a.u. and 63000 a.u. and 62200 a.u.
CCn1cnc2c(NCc3nc4cc(Cl)c(Cl)cc4[nH]3)nc(N3CCC(NC(C)=O)CC3)nc21	40400 a.u. and 38000 a.u. and 39600 a.u.
CCn1cnc2c(NCc3nc4cc(Cl)c(Cl)cc4[nH]3)nc(N3CCN(C(=O)c4ccccn4)CC3)nc21	39400 a.u. and 32300 a.u. and 44200 a.u.
CCn1cnc2c(NCc3nc4cc(Cl)c(Cl)cc4[nH]3)nc(N3CCN(c4ccccn4)CC3)nc21	47600 a.u. and 42900 a.u. and 33300 a.u.
CCn1cnc2c(NCc3nc4cc(Cl)c(Cl)cc4[nH]3)nc(N3CCN(C(=O)[C@H](C)NC(C)=O)CC3)nc21	50600 a.u. and 40400 a.u. and 47700 a.u.
CCn1cnc2c(NCc3nc4cc(Cl)c(Cl)cc4[nH]3)nc(N3CCN(C(=O)c4ccncc4)CC3)nc21	33600 a.u. and 35200 a.u. and 42700 a.u.
CCn1cnc2c(NCc3nc4cc(Cl)c(Cl)cc4[nH]3)nc(N3CCN(S(C)(=O)=O)CC3)nc21	44700 a.u. and 35700 a.u. and 44400 a.u.

Some of these lines once more (study 3):
refers to	route	dose	time	relative to	mRNA level
DUSP4	intravenous	30 mg/kg	144 h	vehicle, same time point	0.269 and 0.235
ETV4	intravenous	10 mg/kg	144 h	vehicle, same time point	0.0108 and 0.0112 and 0.00853
DUSP6	intravenous	30 mg/kg	144 h	vehicle, same time point	0.0927 and 0.092
MYC	–	10 mg/kg	144 h	vehicle	0.593 and 0.62 and 0.85
MYC	–	30 mg/kg	144 h	vehicle	0.415 and 0.539
DUSP4	–	10 mg/kg	2 h	vehicle	1.18 and 1.28 and 0.953
